{"data": "Measurements of several laboratories", "TYK2": "Non-receptor tyrosine-protein kinase TYK2 (TYK2, Homo sapiens, UniProt P29597)", "note": "Each line is one published result; not all experiments were run side by side. Several values in a cell are separate wells, animals, samples, runs or records."}
{"SMILES": "CNC(=O)C[C@H](Cc1ccc(C#N)cc1)NC(=O)c1cc(-c2ccc(CN[C@H](C)c3ccc(C)cc3)o2)ccc1Cl", "target": "TYK2", "assay": "enzyme activity, inhibitor", "setting": "1 µM", "measurement": "activity vs control", "value": "109%"}
{"SMILES": "O=C(Cc1ccc(OCc2ccccc2)cc1)NC1(C(=O)O)CCN(C(=O)c2ccc(-c3cccc(Cl)c3)cc2)CC1", "target": "TYK2", "assay": "enzyme activity, inhibitor", "setting": "10 µM", "measurement": "activity vs control", "value": "109%"}
{"SMILES": "C[C@H]1CN(C(=O)c2cn(-c3ccnc(N)n3)c3cc(C#CC4(O)CCCCC4)ccc23)CCN1", "target": "TYK2", "assay": "enzyme activity, inhibitor, FRET", "setting": "1 µM", "measurement": "inhibition", "value": "1%"}
{"SMILES": "COCC12C(=O)NC3C4(C(OC)CC1O)C1CC5(O)C(OC)C(O)C(OC(C)=O)(C1C5OC(=O)c1ccccc1)C3(O)C(OC)C24 (centres unmarked)", "target": "TYK2", "assay": "kinase activity, inhibitor, ProQinase kinase profiling", "setting": "25 µM", "how to read": "relative to: control", "measurement": "remaining activity", "value": "101% and 102%"}
{"SMILES": "CN1CC[C@@H](COc2cnc(C#N)cc2-c2ccn3nc(NC(=O)C4CC4)cc3c2)C1", "target": "TYK2", "assay": "enzyme activity, inhibitor", "setting": "1 µM", "measurement": "inhibition", "value": "2%"}
{"SMILES": "O=C(Nc1ccc(Oc2ncnc3[nH]cc(-c4ccccc4)c23)c(F)c1)c1c2n(n(-c3cc(F)ccc3F)c1=O)CCCC2", "target": "TYK2", "assay": "enzyme activity, inhibitor", "setting": "0.5 µM", "measurement": "inhibition", "value": "8%"}
{"SMILES": "CN1CCN(Cc2ccc(-c3ccc(CO[C@H]4CCC[C@@H]4NC(=O)c4cc(-c5cnn(C)c5)cnc4N)cc3)cc2)CC1", "target": "TYK2", "assay": "enzyme activity, inhibitor", "setting": "0.1 µM", "measurement": "inhibition", "value": "3%"}
{"SMILES": "Cc1cnc2nc1Nc1cccc(c1)COC/C=C/COCc1cc(ccc1OCCN1CCOCC1)N2", "target": "Non-receptor tyrosine-protein kinase TYK2, JH2 (TYK2, Homo sapiens, UniProt P29597)", "assay": "cell-free assay", "setting": "0.1 µM", "measurement": "remaining signal", "value": "19%"}
{"SMILES": "NC(=O)[C@@H](O)C[C@H]1CCc2sc3ncnc(O[C@H]4CC[C@H](N5CCOCC5)CC4)c3c21", "target": "TYK2", "assay": "enzyme activity, inhibitor", "setting": "10 µM", "measurement": "inhibition", "value": "-5%"}
{"SMILES": "Cc1cccc(O[C@H]2CCC[C@@H](C(C)CNCc3ccncc3)C2)c1 (relative stereo)", "target": "TYK2", "assay": "kinase activity, kinome panel screening", "setting": "10 µM", "measurement": "inhibition", "value": "-1%"}
{"SMILES": "CS(=O)(=O)Nc1cccc(-c2csc3cnc(Nc4ccc(N5CCN(CCCCCOc6cccc7c6C(=O)N(C6CCC(=O)NC6=O)C7=O)CC5)cc4)nc23)c1 (centres unmarked)", "target": "Non-receptor tyrosine-protein kinase TYK2, JH2 pseudokinase domain (TYK2, Homo sapiens, UniProt P29597)", "assay": "probe labelling, inhibitor, KiNativ chemoproteomics", "test system": "MOLT-4", "setting": "1 µM", "measurement": "inhibition", "value": "-2.09%"}
{"SMILES": "N[C@H]1CC[C@H](Nc2nccc(-c3cccnc3Oc3ccc(NC(=O)NC4CC4)c4ccccc34)n2)CC1", "target": "TYK2", "assay": "kinobead competition pulldown", "test system": "HEK293/HCT116 lysate mixture", "setting": "10 µM, 1 h, 4 °C", "how to read": "lower = stronger competition", "measurement": "log2 LFQ intensity", "value": "18.2 and 20.7 and 20 and 20.2"}
{"SMILES": "C=CC(=O)Nc1cccc(-c2cnc3[nH]cc(C(=O)NC(C)(C)C)c3n2)c1", "target": "TYK2", "assay": "kinase activity", "setting": "0.1 µM", "measurement": "inhibition", "value": "39% and 40%"}
{"SMILES": "Cc1ccc(C(=O)Nc2ccc(CN3CCN(C)CC3)c(C(F)(F)F)c2)cc1C#Cc1cnc2cccnn12", "target": "TYK2", "assay": "target engagement, NanoBRET", "test system": "human cells", "measurement": "upper asymptote", "value": 53.2}
{"SMILES": "CCn1cc(C(=O)O)c(=O)c2c(N)c(F)c(NC3CCCCC3)cc21", "target": "Non-receptor tyrosine-protein kinase TYK2, JH1 domain (TYK2, Homo sapiens, UniProt P29597)", "assay": "kinase activity", "setting": "0.1 µM, together with: ATP at Km", "measurement": "inhibition", "value": "-9.6%"}
{"SMILES": "C=CC(=O)N1Cc2nc(-c3cc(-c4cc(Cl)cnc4Cl)c(F)cc3F)n(-c3ccncn3)c2C1", "target": "TYK2", "assay": "cell-free assay, inhibitor", "setting": "1 µM", "measurement": "inhibition", "value": "-1.7%"}
{"SMILES": "NC(=O)C[C@H]1CCc2sc3ncnc(O[C@H]4CC[C@H](N5CCOCC5)CC4)c3c21", "target": "TYK2", "assay": "enzyme activity, inhibitor", "setting": "10 µM", "measurement": "inhibition", "value": "-5%"}
{"note": "For quick reference, copied from above:"}
{"SMILES": "C=CC(=O)N1Cc2nc(-c3cc(-c4cc(Cl)cnc4Cl)c(F)cc3F)n(-c3ccncn3)c2C1", "target": "TYK2", "assay": "cell-free assay, inhibitor", "setting": "1 µM", "measurement": "inhibition", "value": "-1.7%"}
